Published values from different studies.
Each line is one published result; not all experiments were run side by side. ± marks the error that the study gave.
Sequence of UniProt Q16288 (whole entry, looked up): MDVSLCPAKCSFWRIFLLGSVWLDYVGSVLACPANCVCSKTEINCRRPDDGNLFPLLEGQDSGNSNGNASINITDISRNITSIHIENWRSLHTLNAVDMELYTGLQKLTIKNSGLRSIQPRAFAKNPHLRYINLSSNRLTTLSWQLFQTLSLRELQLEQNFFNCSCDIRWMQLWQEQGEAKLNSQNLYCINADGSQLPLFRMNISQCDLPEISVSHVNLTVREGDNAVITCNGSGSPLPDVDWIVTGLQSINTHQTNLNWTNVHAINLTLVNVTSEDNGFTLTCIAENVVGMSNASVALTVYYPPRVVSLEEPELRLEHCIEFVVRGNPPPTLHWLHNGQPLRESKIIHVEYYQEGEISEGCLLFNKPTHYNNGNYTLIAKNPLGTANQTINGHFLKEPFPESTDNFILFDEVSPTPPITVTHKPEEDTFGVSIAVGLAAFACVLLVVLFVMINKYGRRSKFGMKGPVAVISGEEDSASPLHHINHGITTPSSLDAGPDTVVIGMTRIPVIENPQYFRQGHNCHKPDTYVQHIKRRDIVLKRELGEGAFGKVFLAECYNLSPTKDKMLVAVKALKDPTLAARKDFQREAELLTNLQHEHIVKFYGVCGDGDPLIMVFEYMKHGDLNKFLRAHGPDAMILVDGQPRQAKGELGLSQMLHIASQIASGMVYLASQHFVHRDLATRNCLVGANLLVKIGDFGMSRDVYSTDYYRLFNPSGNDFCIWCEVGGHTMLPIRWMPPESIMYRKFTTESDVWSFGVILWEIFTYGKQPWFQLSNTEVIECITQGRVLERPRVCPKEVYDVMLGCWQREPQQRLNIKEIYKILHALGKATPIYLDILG
Sequence of UniProt Q16654 (whole entry, looked up): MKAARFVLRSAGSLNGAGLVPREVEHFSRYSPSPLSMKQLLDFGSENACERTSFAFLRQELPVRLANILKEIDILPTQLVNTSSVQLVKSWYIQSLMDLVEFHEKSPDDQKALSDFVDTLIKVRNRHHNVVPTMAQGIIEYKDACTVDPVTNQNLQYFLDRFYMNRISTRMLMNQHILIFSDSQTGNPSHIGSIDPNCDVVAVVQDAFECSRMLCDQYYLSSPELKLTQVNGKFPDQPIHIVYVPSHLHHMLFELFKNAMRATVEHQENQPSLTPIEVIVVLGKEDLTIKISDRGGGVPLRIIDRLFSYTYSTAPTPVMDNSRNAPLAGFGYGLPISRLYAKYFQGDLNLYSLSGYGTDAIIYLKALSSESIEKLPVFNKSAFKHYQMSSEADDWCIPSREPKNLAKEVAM
Sequence of UniProt Q06418 (whole entry, looked up): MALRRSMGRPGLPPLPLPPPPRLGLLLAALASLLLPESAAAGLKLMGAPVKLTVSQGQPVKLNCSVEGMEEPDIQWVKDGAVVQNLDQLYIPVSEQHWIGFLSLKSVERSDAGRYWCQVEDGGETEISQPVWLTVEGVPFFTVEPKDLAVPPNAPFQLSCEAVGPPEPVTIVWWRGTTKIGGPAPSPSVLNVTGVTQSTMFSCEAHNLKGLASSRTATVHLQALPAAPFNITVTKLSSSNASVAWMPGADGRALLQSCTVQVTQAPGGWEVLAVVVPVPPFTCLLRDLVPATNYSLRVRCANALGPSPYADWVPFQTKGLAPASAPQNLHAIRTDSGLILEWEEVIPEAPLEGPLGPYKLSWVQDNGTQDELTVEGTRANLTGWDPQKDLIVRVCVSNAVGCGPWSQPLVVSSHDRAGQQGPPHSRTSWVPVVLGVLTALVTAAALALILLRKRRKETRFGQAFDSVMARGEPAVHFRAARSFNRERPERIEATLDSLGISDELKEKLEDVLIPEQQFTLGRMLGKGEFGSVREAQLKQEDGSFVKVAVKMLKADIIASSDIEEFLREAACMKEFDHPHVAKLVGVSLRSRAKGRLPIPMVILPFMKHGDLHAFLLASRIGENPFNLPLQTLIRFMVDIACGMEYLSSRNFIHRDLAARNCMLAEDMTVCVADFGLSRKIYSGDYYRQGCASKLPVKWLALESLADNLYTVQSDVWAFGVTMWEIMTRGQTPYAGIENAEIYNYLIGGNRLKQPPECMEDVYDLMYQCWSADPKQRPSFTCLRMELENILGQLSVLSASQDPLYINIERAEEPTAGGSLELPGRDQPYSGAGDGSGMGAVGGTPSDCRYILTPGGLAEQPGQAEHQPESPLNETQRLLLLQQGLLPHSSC

Cc1nc(N2CCC(N(C)c3cc(C(=O)NCCN4CCCC4)cnn3)CC2)nc(C)c1CC(C)C — Cmax (female hamster; oral, 100 mg/kg): 8640 ng/mL
CC1(C)C(=O)N(c2ccc(C#N)c(C(F)(F)F)c2)C(=S)N1c1ccc(C(=O)O)c(F)c1 — Cmax (human, male, plasma; oral, 40 mg, soft capsule): 27.3 ± 6.79 ng/mL
CS(C)(=O)=Nc1ccc(-c2ccc(-c3nc4cc(O[C@@H]5CO[C@H]6[C@@H]5OC[C@H]6O)[nH]c4cc3F)cc2)cc1 — inhibition (NTRK3 (Homo sapiens, UniProt Q16288); enzyme activity, inhibitor; 10 µM): 24%
CN[C@H](CC(C)C)C(=O)N[C@H]1C(=O)N[C@@H](CC(N)=O)C(=O)N[C@H]2C(=O)N[C@H]3C(=O)N[C@H](C(=O)N[C@H](C(=O)O)c4cc(O)cc(O)c4-c4cc3ccc4O)[C@H](O)c3ccc(c(Cl)c3)Oc3cc2cc(c3O[C@@H]2O[C@H](CO)[C@@H](O)[C@H](O)[C@H]2O[C@H]2C[C@](C)(NCc3ccc(-c4ccc(Cl)cc4)cc3)[C@H](O)[C@H](C)O2)Oc2ccc(cc2Cl)[C@H]1O — Cmax (mouse, plasma; intravenous, 10 mg/kg): 65000 ng/mL
CN1CCCCC1C(=O)NC(Cc1ccc(-c2ccccc2)cc1)B(O)O (stereo not drawn) — Cmax (rat, plasma; oral, 1 mg/kg): 282 nM
O=C1NC2(CC2)COc2ncc(F)cc2[C@H]2COCCN2c2ccn3ncc1c3n2 — serum total protein (Sprague-Dawley rat, male, serum; oral, 5 mg/kg/day, end of recovery, 4-week subacute toxicity): 57.7 ± 2.8 g/L
NC1CCN(C(=O)Oc2ccc(C3CCCC4(C3)OOC3(O4)C4CC5CC(C4)CC3C5)cc2)CC1 (racemic) — Cmax (male mouse, plasma; oral, 50 mg/kg, single dose): 1190 ng/mL
CC(C)(C)C(=O)OCOP(=O)(OCOC(=O)C(C)(C)C)C1CCCN(O)C1=O (stereo not drawn) — log GI50 (SF-295): -5.41 log M
CCCCCCCCCCCCCCCC(=O)N[C@@H](CCC(=O)NCCOCCOCCC(=O)NCCOCCOCCC(=O)NCCCC[C@H](NC(=O)[C@H](CC(=O)O)NC(=O)[C@H](CC(C)C)NC(=O)[C@H](Cc1ccc(O)cc1)NC(=O)[C@H](CCCCN)NC(=O)[C@H](CO)NC(=O)[C@H](Cc1ccc(O)cc1)NC(=O)[C@H](CC(=O)O)NC(=O)[C@H](CO)NC(=O)[C@@H](NC(=O)[C@H](Cc1ccccc1)NC(=O)[C@@H](NC(=O)CNC(=O)[C@H](CCC(N)=O)NC(=O)[C@@H](CO)NC(=O)[C@@H](N)Cc1c[nH]cn1)[C@@H](C)O)[C@@H](C)O)C(=O)N[C@@H](CCCNC(=N)N)C(=O)N[C@@H](CCCNC(=N)N)C(=O)N[C@@H](C)C(=O)N[C@@H](CCC(N)=O)C(=O)N[C@@H](CC(=O)O)C(=O)N[C@@H](Cc1ccccc1)C(=O)N[C@H](C(=O)N[C@@H](CCC(N)=O)C(=O)N[C@@H](Cc1c[nH]c2ccccc12)C(=O)N[C@@H](CC(C)C)C(=O)N[C@@H](CC(C)C)C(=O)N[C@@H](CC(N)=O)C(=O)N[C@H](C(=O)NCC(=O)NCC(=O)N1CCC[C@H]1C(=O)N[C@@H](CO)C(=O)N[C@@H](CO)C(=O)NCC(=O)N[C@@H](C)C(=O)N1CCC[C@H]1C(=O)N1CCC[C@H]1C(=O)N1CCC[C@H]1C(=O)N[C@@H](CO)C(N)=O)[C@@H](C)O)C(C)C)C(=O)O — Cmax (rhesus monkey, female, plasma; subcutaneous, 20 µg/kg, day 28, toxicokinetics, mean): 25.1 ng/mL
CC[C@H](C)[C@H](NC(=O)CNC(=O)[C@H](CCSC)NC(=O)[C@H](CCC(N)=O)NC(=O)[C@H](C)NC(=O)[C@H](CCC(N)=O)NC(=O)[C@@H](NC(=O)[C@H](CC(C)C)NC(=O)[C@H](C)NC(=O)[C@H](CO)NC(=O)[C@H](CCSC)NC(=O)[C@H](CCC(=O)O)NC(=O)[C@H](CC(C)C)NC(=O)[C@H](Cc1ccc(O)cc1)NC(=O)[C@H](CO)NC(=O)[C@H](CCC(=O)O)NC(=O)[C@H](CCC(N)=O)NC(=O)[C@H](CCCNC(=N)N)NC(=O)[C@H](CCCCN)NC(=O)[C@H](CC(=O)O)NC(=O)[C@H](CC(C)C)NC(=O)[C@H](CC(N)=O)NC(=O)[C@H](Cc1ccccc1)NC(=O)[C@H](CCC(=O)O)NC(=O)[C@H](CCCCN)NC(=O)[C@@H](NC(=O)[C@H](CC(C)C)NC(=O)[C@H](CCC(=O)O)NC(=O)[C@H](CCC(=O)O)NC(=O)[C@@H](NC(=O)[C@@H](NC(=O)[C@H](CCCNC(=N)N)NC(=O)[C@H](CCCCN)NC(=O)[C@H](C)NC(=O)[C@H](Cc1ccccc1)NC(=O)[C@H](CCC(=O)O)NC(=O)[C@H](CCC(=O)O)NC(=O)[C@H](CC(C)C)NC(=O)[C@@H](N)CO)C(C)C)C(C)C)C(C)C)[C@@H](C)CC)C(=O)N[C@@H](CO)C(=O)N[C@@H](CCC(=O)O)C(=O)N[C@@H](CCCNC(=N)N)C(=O)N[C@H](C(=O)N[C@H](C(=O)N[C@@H](CCC(=O)O)C(=O)N[C@H](C(=O)N[C@H](C(=O)N[C@@H](CC(C)C)C(=O)N[C@@H](CCCNC(=N)N)C(=O)N[C@@H](Cc1c[nH]cn1)C(=O)N[C@@H](C)C(=O)N[C@@H](C)C(=O)N[C@@H](CCC(N)=O)C(=O)N[C@H](C(=O)N[C@@H](CC(C)C)C(=O)N[C@@H](CCCCN)C(=O)O)[C@@H](C)O)C(C)C)[C@@H](C)CC)[C@@H](C)CC)[C@@H](C)CC — Cmax (male mouse, plasma; intravenous, 1 mg/kg): 11200 ng/mL
CC1(C)C(=O)N(c2ccc(C#N)c(C(F)(F)F)c2)C(=S)N1c1ccc(C(N)=O)c(F)c1 — Cmax (human, male, plasma; oral, 80 mg, soft capsule): 275 ± 59.7 ng/mL
CC(C)[C@H]1NC(=O)[C@H](Cc2ccccc2)NC(=O)[C@@H](C(C)C)NC(=O)[C@@H](C)NC(=O)[C@H](CO)NC(=O)[C@@H](Cc2c(-c3ccc(-c4ccc5ccccc5c4)cc3)[nH]c3ccccc23)NC(=O)[C@@H](CO)NC1=O — Cmax (female Sprague-Dawley rat, plasma; intravenous, 1 mg/kg, single dose): 32000 ng/mL
COc1ccccc1-c1n[nH]c2nc(NC3CCN(C(=O)Cc4ccc(F)cc4F)CC3)ncc12 — relative abundance (bead binding, competition bead pull-down, refers to: LINJ.31.1230; Leishmania donovani extract; 10 µM; relative to: vehicle): 0.93
COc1nc(CC=C(C)CC=CC(C)=CC(C)C(OC2OC(CO)C(O)C(O)C2O)C(C)=CCO)c(C)c(O)c1OC (stereo not drawn) — Cmax (C57BL/6 mouse, plasma; oral, 10 mg/kg): 230 ng/mL
CC(C)[C@H]1NC(=O)C[C@H]2/C=C/CCSSC[C@@H](NC1=O)C(=O)N[C@H](Cc1cccc3ccccc13)C(=O)NCC(=O)O2 — inhibition (PDK4 (Homo sapiens, UniProt Q16654); enzyme activity, inhibitor; 10 µM): 1.6%
Cn1nc(NS(C)(=O)=O)c2c(Cl)ccc(-n3c([C@H](Cc4cc(F)cc(F)c4)NC(=O)Cn4nc(C(F)F)c5c4C(F)(F)[C@@H]4C[C@H]54)nc4nc(OCCC(F)(F)F)ccc4c3=O)c21 — Cmax (human, plasma; oral, 200 mg single dose, tablet, geometric mean): 61.9 ng/mL
CCCCCn1ccc(C(=O)NC(C)(C)c2ccc(CNC(C)=O)cc2)n1 — Cmax (mouse, plasma; intraperitoneal, 2.5 mg/kg): 150 ng/mL
O=C1NC(=O)c2c1c1cc(F)c[n+]3c1c1c2c2cc(O)ccc2[n]1[Ru-4]312([N]=C=S)[S+]3CC[S+]1CC[S+]2CC3 (stereo not drawn) — remaining activity (TYRO3 (Homo sapiens, UniProt Q06418); enzyme activity; 100 nM, human enzyme, added: 10 µM ATP; relative to: untreated): 15%

For quick reference, copied from above:
COc1nc(CC=C(C)CC=CC(C)=CC(C)C(OC2OC(CO)C(O)C(O)C2O)C(C)=CCO)c(C)c(O)c1OC (stereo not drawn) — Cmax (C57BL/6 mouse, plasma; oral, 10 mg/kg): 230 ng/mL
